Measurements pooled from the literature.
Several values in a cell are separate wells, animals, samples, runs or records. Numbers after ± are the reported error.

[2H]c1c([2H])c([C@]2([2H])CCCN2C(=O)C(C)(C)Oc2ccc3cn[nH]c3c2)c([2H])c([2H])c1C([2H])([2H])[2H]  remaining binding (CDC42BPG (Homo sapiens, UniProt Q6DT37); KINOMEscan; 1 µM; baseline: DMSO control): 91%
O=C(c1ccc(Cl)cc1)N1CCN2C(=O)N(OC(=O)N3CCOc4ccccc43)C(=O)C2C1 (stereo not drawn)  median ratio (DPP9 (Homo sapiens, UniProt Q86TI2); enzyme activity, inhibitor, MS-based ABPP; SW-620 conditioned medium; 10 µM, 1 h, 37 °C; baseline: compound over DMSO, lower = stronger inhibition): 1.17
O=C(O)Cc1c[nH]cn1  normalised MST signal (SLC6A6 (Homo sapiens, UniProt P31641, Y138A); binding, microscale thermophoresis; 15.6 µM, room temperature, added: 50 nM labelled protein; higher = more binding): 0.0283
O=C(NNC(=O)c1csnn1)c1ccc(Cl)cc1  remaining activity (Acetyl-CoA synthetase (Cryptococcus neoformans, UniProt J9VFT1); 50 µM): -0.0953%
CC[N+]1(CC)CCN(c2ccccc2)CC1  response relative to ACh (CHRNA9 (Homo sapiens, UniProt Q9UGM1); peak current, agonist, two-electrode voltage clamp; Xenopus oocytes coexpressing rapsyn; 30 µM; baseline: ACh 60 µM): < 5%
Nc1nc2c(ncn2[C@@H]2O[C@H](COP(=O)(O)OP(=O)(O)OP(=O)(O)O)[C@@H](O)[C@H]2O)c(=O)[nH]1  binding enthalpy (GTP 3',8-cyclase (moaA, Staphylococcus aureus, UniProt P69848, R268K); isothermal titration calorimetry; concentration not given, 25 °C, R268K mutant, anaerobic): -15.1 ± 0.8 kcal/mol
CSCC[C@H](N)C(=O)N[C@@H](C)C(=O)N[C@@H](C)C(=O)N[C@H](C(=O)N[C@@H](C)C(=O)NCC(=O)N[C@@H](CC(C)C)C(=O)N[C@@H](Cc1ccc(O)cc1)C(=O)NCC(=O)N[C@@H](CC(C)C)C(=O)NCC(=O)N[C@@H](CCC(=O)O)C(=O)N[C@@H](CC(=O)O)C(=O)N[C@@H](CCCNC(=N)N)C(=O)N[C@@H](CCC(N)=O)C(=O)N[C@@H](Cc1c[nH]cn1)C(=O)N[C@@H](CCCNC(=N)N)C(=O)N[C@@H](CCCCN)C(=O)N[C@@H](CCCCN)C(=O)N[C@@H](CCC(N)=O)C(N)=O)C(C)C  Hill coefficient (Sh, DEL6-46 (Drosophila melanogaster, UniProt P08510); ion current, blocker, inside-out patch clamp; +50 mV): 0.86
CCCCC/C=C\C/C=C\C/C=C\C/C=C\CCCC(=O)O  formation rate (cyp102A1 (Bacillus megaterium, UniProt P14779); substrate, measured: 14,15-EET; 30 s, added: NADPH 0.5 mM): 1.1 ± 0.21 µmol/min/nmol BM3
N[C@@H](Cc1c[nH]c2ccccc12)C(=O)O  Km (Tryptophan decarboxylase (Mediterraneibacter gnavus, UniProt A7B1V0); substrate): 1600 µM
O=c1cc(CSc2ccc(N=Cc3ccccc3)cc2)occ1O  fluorescence decrease (PPO3 (Agaricus bisporus, UniProt C7FF04); intrinsic fluorescence; 50 µM; baseline: 0 µM): 81%
O=C(CF)N[C@H]1[C@H]([C@H](O)[C@H](O)CO)O[C@@](OC[C@H]2O[C@@H](Oc3ccc([N+](=O)[O-])cc3)[C@H](O)[C@@H](O)[C@H]2O)(C(=O)O)C[C@@H]1O  sialic acid release (Sialidase-2 (Homo sapiens, UniProt Q9Y3R4); substrate; 0.3 mM, 30 min, pH 5.0, 37 °C): 18%
CC1(C)C=C(CNc2ccc3c(c2)Cc2cc(Br)ccc2-3)C(C)(C)N1[O]  T1 relaxation time (Amyloid-beta precursor protein, amyloid-beta (APP, Homo sapiens, UniProt P05067); MRI, MSME; 5xFAD mice, brain; iv, 3 mg/kg, 24 h; baseline: wild-type mice): 76%
O=C(Nc1cccnn1)N1CCC(=Cc2cccc(Oc3ccc(C(F)(F)F)cn3)c2)CC1  inhibition (Tmem97 (Rattus norvegicus, UniProt Q5U3Y7); radioligand binding, inhibitor; 50 µM, rat, added: [3H]ifenprodil): 73%
Cc1nc([C@@](C)(CC2CC2)NC(=O)c2cc(OCC(F)(F)F)c(C3CC3)cn2)no1  selectivity ratio (CNR2 (Homo sapiens, UniProt P34972); binding, [3H]-CP55940 displacement; baseline: CB1 Ki over CB2 Ki): 44
Nc1ncc(-c2nc(N3CCOCC3)nc(N3CCOCC3)n2)c(C(F)F)n1  remaining binding (central benzodiazepine site; radioligand binding, agonist ligand; 10 µM; baseline: control): 136%
OCC(F)(F)F  Kd increase (ADH1 (Saccharomyces cerevisiae, UniProt P00330, H49Q); binding; pH 7.3; baseline: wild type): 13 fold
COC1=C(OC)C(=O)C(CC=C(C)C)=C(C)C1=O  free energy difference (Reaction center protein L chain, QB site (pufL, Cereibacter sphaeroides, UniProt P0C0Y8); QB site binding; Rhodobacter sphaeroides, reaction centres): -581 meV
COc1cc(Nc2ncc(F)c(Nc3ccc4c(n3)NC(=O)C(C)(C)O4)n2)cc(OC)c1OC  inhibition (MAP3K6 (Homo sapiens, UniProt O95382); binding, KINOMEscan; 10 µM, ASK2 kinase): 32%
CN(C(=O)n1cnc(-c2ccc[n+]([O-])c2)c1)C1CCCCC1  inhibition (ghrelin receptor; concentration not given): -6% and 1%
O=C(O)C(/C=C/c1ccc(Cl)cc1)=N\Nc1nc(-c2ccccc2)cs1  selectivity index (ache (Electrophorus electricus, UniProt O42275); Ellman; baseline: IC50 BChE over IC50 AChE): 2.37
Nc1nc2c(ncn2[C@@H]2O[C@@H]3COP(=O)(O)O[C@H]4[C@@H](O)[C@H](n5cnc6c(=O)[nH]c(N)nc65)O[C@@H]4COP(=O)(O)O[C@H]3[C@H]2O)c(=O)[nH]1  binding enthalpy (ΔH) (Cell cycle histidine kinase CckA, cytoplasmic region (Caulobacter vibrioides, UniProt Q9X688); isothermal titration calorimetry; concentration not given, added: ADP 5 mM): 4.9 ± 0.118 kcal/mol
CC[C@@H](C)[C@@H](NC(=O)[C@@H](Cc1ccc(O)cc1)NC(=O)[C@H]1CCCN1C(=O)[C@@H](CCCNC(=N)N)NC(=O)[C@H](N)Cc1c[nH]cn1)C(=O)N[C@H](C)C(=O)N[C@H](Cc1c[nH]cn1)C(=O)N[C@H](CCCNC(=N)N)C(=O)N[C@H](CCCCNC(=O)c1cccc(S(=O)(=O)F)c1)C(=O)N[C@H](Cc1ccc(O)cc1)C(=O)N[C@H](CO)C(=O)N[C@H](Cc1ccccc1)C(N)=O  surface TFRC expression (Transferrin receptor protein 1 (Tfrc, Mus musculus, UniProt Q62351); flow cytometry; DC2.4; 48 h, pH 6, replicate 1, unit not given; baseline: 0 h): 0.751
Nc1ccncc1  potentiation (Glutamate receptor 2 (Homo sapiens, UniProt P42262); ion current, positive allosteric modulator, automated patch clamp; HEK293; 3 µM): 88%
COc1cc(N)c(Cl)cc1C(=O)NC1CN2CCC1CC2 (stereo not drawn)  log2 fold change (ADGRG2 (Homo sapiens, UniProt Q8IZP9); β-arrestin recruitment, TANGO luminescence, measured: GPR64; concentration not given; baseline: basal luminescence): -0.00285
C[C@H]1CN(c2n[nH]c3nc(N[C@H]4CC[C@H](NS(=O)(=O)CCC(F)(F)F)CC4)ncc23)CCO1  remaining binding (AP-2 complex subunit sigma (Homo sapiens, UniProt P53680); Kinobeads competition, measured: AP2S1; 0.8 µM, unit not given; baseline: vehicle): 1.13
CC(C)[C@@H](O)CC[C@@H](C)[C@H]1CC[C@H]2[C@@H]3CC=C4C[C@@H](O)CC[C@]4(C)[C@H]3CC[C@]12C  current response (Glutamate NMDA receptor; GRIN1/GRIN2B (GRIN1/GRIN2B, Homo sapiens, UniProt Q05586+Q13224, T550A); positive allosteric modulator, two-electrode voltage clamp; Xenopus oocytes expressing GluN1-T550A; 10 µM, 0.02% cremophor, added: 100 µM glutamate and glycine; baseline: without compound): 116 ± 5.2%
O=C(Nc1cnccc1Cl)N1CCN(Cc2ccc3c(c2)OC(F)(F)O3)CC1  inhibition (ZAP70 (Homo sapiens, UniProt P43403); kinase activity, inhibitor; 10 µM, human, added: poly(Glu,Tyr)): -4%
COc1ccc2c3c([nH]c2c1)CCN(C)CC3.O=C(O)/C=C/C(=O)O  Hill coefficient (Nicotinic acetylcholine receptor alpha9/alpha10 (Rattus norvegicus, UniProt P43144+Q9JLB5); ion current, inhibitor, two-electrode voltage clamp; Xenopus laevis oocytes, rat; added: 100 µM acetylcholine): 2 ± 0.2
O=C(Nc1ccc2c(c1)B(O)OC2)c1cccc(NCc2ccccc2)c1  inhibition (Genome polyprotein, NS2B-NS3 protease (West Nile virus, UniProt P06935); enzyme activity, FRET; 50 µM, added: substrate 50 µM): 21 ± 4%
NC(CC1(C(=O)O)CC2OC(CO)C(O)C(O)C2O1)C(=O)O (stereo not drawn)  affinity reduction (Glutamate receptor ionotropic, kainate 1 (Rattus norvegicus, UniProt P22756, del402-416); [3H]kainate displacement; concentration not given; baseline: parent compound Ki): ~8 fold
CN1C(=O)CC[C@H](N2Cc3c(ccc4c3OCC43CCN(C[C@@H]4CCC5(CCN(c6ccc([C@@H]7c8ccc(O)cc8CC[C@@H]7c7ccccc7)cc6)CC5)OC4)CC3)C2=O)C1=O  ER protein level (Estrogen receptor (ESR1, Homo sapiens, UniProt P03372, Y537S); degrader, Western blot; MCF7 (ESR1 Y537S); 10 and 100 nM, 7 h): no effect
CN1CCN(c2cc(-c3ccncc3)c(-c3ccc4ccccc4c3)nn2)CC1  activation (NTSR1 (Homo sapiens, UniProt P30989); agonist, FLIPR; 12.5 µM): -0.6%
O=C(Cc1ccccc1)N[C@H]1CCOC1=O  Emax (Regulatory protein SdiA (sdiA, Escherichia coli, UniProt P07026)): 106%
O=C(O)COP(=O)(O)O  Ki ratio (Triosephosphate isomerase (TPI1, Gallus gallus, UniProt P00940, G210A/S211G/Y208T); enzyme activity, competitive inhibitor, GPDH/NADH-coupled; pH 6.4, 25 °C, ionic strength 0.1 NaCl, added: glyceraldehyde 3-phosphate substrate; baseline: mutant over wild type): 830
CC1(C)C(C=C(Cl)Cl)C1C(=O)OCc1cccc(Oc2ccccc2)c1 (stereo not drawn)  remaining activity (uncharacterized protein (Anopheles coluzzii, UniProt A0A6E8VQK1); enzyme activity, inhibitor; Sf9 cell homogenate; 69.77 µM, 0.1667 h, added: α-naphthyl acetate substrate; baseline: no inhibitor): 96.8%
COc1ccc(N2C(=O)N(c3c(C)cccc3Cl)Cc3cnc(Nc4ccc(C5CCN(C)CC5)cc4OC)nc32)nc1  inhibition (HIPK4 (Homo sapiens, UniProt Q8NE63); kinase activity; 0.5 µM): 5%
C/C(=C/C(=O)C[C@H](C)C(=O)O)[C@@H]1CC(=O)[C@@]2(C)C3=C(C(=O)C[C@]12C)[C@@]1(C)CCC(=O)C(C)(C)[C@@H]1C[C@@H]3O  Hill coefficient (Calcium-activated potassium channel subunit beta-1, with BK alpha subunit (Kcnmb1, Rattus norvegicus, UniProt P97678); BK channel current; CHO with alpha and beta1): 0.8 ± 0.04
Clc1ccc(-c2ccc(Cl)cc2Cl)cc1  EC25 (Estrogen receptor (ESR1, Homo sapiens, UniProt P03372); reporter gene, agonist; T47D.luc; 24 h; baseline: estradiol): 15 µM
O=C(O)C(F)(F)C(F)(F)C(F)(F)C(F)(F)C(F)(F)C(F)(F)C(F)(F)F  binding fold change (FABP1 (Homo sapiens, UniProt P07148); affinity selection mass spectrometry; 100 nM, added: pooled compounds; baseline: other proteins): 87.1

Some of these lines once more:
O=C(O)Cc1c[nH]cn1  normalised MST signal (SLC6A6 (Homo sapiens, UniProt P31641, Y138A); binding, microscale thermophoresis; 15.6 µM, room temperature, added: 50 nM labelled protein; higher = more binding): 0.0283
Nc1ccncc1  potentiation (Glutamate receptor 2 (Homo sapiens, UniProt P42262); ion current, positive allosteric modulator, automated patch clamp; HEK293; 3 µM): 88%
CCCCC/C=C\C/C=C\C/C=C\C/C=C\CCCC(=O)O  formation rate (cyp102A1 (Bacillus megaterium, UniProt P14779); substrate, measured: 14,15-EET; 30 s, added: NADPH 0.5 mM): 1.1 ± 0.21 µmol/min/nmol BM3
